Assay results collected from several papers.
Each numbered part is a random draw from the data of one study; scales do not carry over between parts.

Block 1
Target: Hepatocyte nuclear factor 3-beta, forkhead domain (FOXA2, Homo sapiens, UniProt Q9Y261, residues 142-269)
Method: protein-binding microarray
Molecule type: hairpin DNA
Matrix: in vitro
Concentration: not given
Setting: whole hairpin DNA, median over replicate spots
Reference: not given
Direction: higher = stronger binding
Target sequence (chain): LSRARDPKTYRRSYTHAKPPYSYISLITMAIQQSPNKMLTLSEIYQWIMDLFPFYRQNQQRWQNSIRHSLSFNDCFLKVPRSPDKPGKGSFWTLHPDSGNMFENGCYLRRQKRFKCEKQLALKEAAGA
Strand | median fluorescence
GAGGCCATGCAAACACCGCCTCCTGGCGGTGTTTGCATGGCCTCACACTC (5mC at 16) | 3550 a.u.
GAGGCCATGTAACCACGGCCTCCTGGCCGTGGTTACATGGCCTCACACTC (5mC at 16 28) | 3110 a.u.
GAGGCCATGTACGCAACGCCTCCTGGCGTTGCGTACATGGCCTCACACTC (5mC at 12) | 3260 a.u.
GAGGCCATGCGACCAACGCCTCCTGGCGTTGGTCGCATGGCCTCACACTC (5mC at 10 34) | 3220 a.u.
GAGGCCACGCAAACAACGCCTCCTGGCGTTGTTTGCGTGGCCTCACACTC (5mC at 36) | 3660 a.u.
GAGGCCATGCAACCAACGCCTCCTGGCGTTGGTTGCATGGCCTCACACTC | 3330 a.u.
GAGGCCAAGTAAACAACGCCTCCTGGCGTTGTTTACTTGGCCTCACACTC | 4760 a.u.
GAGGCCATGGAACCAACGCCTCCTGGCGTTGGTTCCATGGCCTCACACTC | 3310 a.u.
GAGGCCATGCAAACACGGCCTCCTGGCCGTGTTTGCATGGCCTCACACTC (5mC at 28) | 3560 a.u.
GAGGCCATGCAAACACGGCCTCCTGGCCGTGTTTGCATGGCCTCACACTC | 3590 a.u.
GAGGCCCTGTAACCAACGCCTCCTGGCGTTGGTTACAGGGCCTCACACTC (5mC at 7) | 3010 a.u.
GAGGCCATGTAAACAACGCCTCCTGGCGTTGTTTACATGGCCTCACACTC | 4810 a.u.
GAGGCCATGTGAACAACGCCTCCTGGCGTTGTTCACATGGCCTCACACTC | 3250 a.u.
GAGGCCATGTACACAACGCCTCCTGGCGTTGTGTACATGGCCTCACACTC | 3710 a.u.
GAGGCCATGCAACGAACGCCTCCTGGCGTTCGTTGCATGGCCTCACACTC (5mC at 13 31) | 3320 a.u.
GAGGCCATGTAGCCAACGCCTCCTGGCGTTGGCTACATGGCCTCACACTC (5mC at 33) | 3240 a.u.
GAGGCCATGCAAACACGGCCTCCTGGCCGTGTTTGCATGGCCTCACACTC (5mC at 16 28) | 3510 a.u.
GAGGCCATGTCGACAACGCCTCCTGGCGTTGTCGACATGGCCTCACACTC (5mC at 33) | 3290 a.u.
GAGGCCATGTCAACAACGCCTCCTGGCGTTGTTGACATGGCCTCACACTC | 4180 a.u.

Block 2
Target: Histone acetyltransferase KAT6A, winged helix 1, GST fusion (KAT6A, Homo sapiens, UniProt Q92794, residues 1-85)
Method: protein binding microarray
Molecule type: double-stranded DNA, one strand shown
Matrix: in vitro
Concentration: not given
Setting: 8-mer, flanks averaged, mean of 2 arrays, mostly near background
Reference: not given
Direction: higher = stronger binding
Construct (chain): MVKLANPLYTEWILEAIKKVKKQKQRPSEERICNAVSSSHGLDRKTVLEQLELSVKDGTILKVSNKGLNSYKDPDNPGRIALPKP
Strand | E-score
CTGCTAAG | -0.184
GCGGACGA | 0.23
CATGGCTC | 0.0676
CGGTTACG | 0.368
GGAACCAC | 0.0346
AGAAGCAA | -0.211
GACCTGGA | -0.152
CCCTGGTC | -0.0334
CCTAAGGC | -0.076
ATCCAAAC | -0.198
CGGGCCTC | 0.243

Block 3
Target: Fragile X messenger ribonucleoprotein 1, C-terminal low-complexity region (Fmr1, Mus musculus, UniProt P35922)
Method: RNA Bind-n-Seq
Molecule type: RNA
Matrix: in vitro
Concentration: 200 nM
Setting: whole 134-nt RNA, ends assumed
Together with: 150 mM LiCl
Reference: input library
Direction: higher = stronger binding
All molecules: 7-deaza-guanosine replaces G
Strand | log2 enrichment
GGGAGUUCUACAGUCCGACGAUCGUCCUGUGCUACACAUCGUAUGUACCGAAUCGGUUUUUUGGUUUUUUGGGUUUUUUGGGAAAGUAUUAUGUUACGCCGUUCGGAUCUGCAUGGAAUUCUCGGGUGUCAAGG | -1.4
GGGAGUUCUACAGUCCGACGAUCAGUCCUGUGCUACACAUCGUAUGUACCGAAUCGGGGAAAGGGGAAAGGGGUUUGGGGAAAGUAUUAUGUUACGCCGUUCGGAUCUGCACUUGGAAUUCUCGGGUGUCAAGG | -1
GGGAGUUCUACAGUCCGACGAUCUCCUCAAGUCCUGUGCUACACAUCGUAUGUACCGAAUCGGGGCGGCGGGCGGAAAGUAUUAUGUUACGCCGUUCGGAUCUGCACUUCCAGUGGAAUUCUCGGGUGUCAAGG | -0.0798
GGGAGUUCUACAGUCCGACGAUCAAGUCCUGUGCUACACAUCGUAUGUACCGAAUCGGGUUUUGGGGUUUUGGGUUUUGGAAAGUAUUAUGUUACGCCGUUCGGAUCUGCACUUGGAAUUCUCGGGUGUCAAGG | -0.968
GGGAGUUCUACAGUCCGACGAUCUGGCCCUGGUGGCAUGCGGGGAGGAAGAGUUGGCCUCAUGGAUCGUGGUGGUCCCGGUGGAAUGUUCAGAGGUGGCCGUGGUGGAGACAGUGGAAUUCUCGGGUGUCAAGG | -0.238
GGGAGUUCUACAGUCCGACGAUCCACAGACAACACGCACCCACACAGACACAGAGGGAAGGGGUGGGGAUGGGGACAGGGUGCACAGCAGGGCGGGGUAGGACCCCAGCCCCUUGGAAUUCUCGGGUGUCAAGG | -0.972

Block 4
Target: UBE2Q1 UBC core domain (UniProt Q7Z7E8)
Method: yeast two-hybrid
Matrix: yeast
Setting: mostly zero background
Reference: not given
Direction: higher = stronger interaction
B1: TRIM11 RING domain (UniProt Q96F44); chain LSTNLQEEATCAICLDYFTDPVMTDCGHNFCRECIRRCWGQPEGPYACPECRELSPQRNLRP
B2: RNF182 RING domain (UniProt Q8N6D2); chain AESQASDELECKICYNRYNLKQRKPKVLECCHRVCAKCLYKIIDFGDSPQGVIVCPFCRFETCLPDDEV
B3: HLTF RING domain (UniProt Q14527); chain LILSSGSDEECAICLDSLTVPVITHCAHVFCKPCICQVIQNEQPHAKCPLCRNDIHEDNLLE
B4: ARIH2 RING domain (UniProt O95376); chain HVPTSHPPHHCAVCMQFVRKENLLSLACQHQFCRSCWEQHCSVLVKDGVGVGVSCMAQDCPLRTPEDFVF
Residues (chain): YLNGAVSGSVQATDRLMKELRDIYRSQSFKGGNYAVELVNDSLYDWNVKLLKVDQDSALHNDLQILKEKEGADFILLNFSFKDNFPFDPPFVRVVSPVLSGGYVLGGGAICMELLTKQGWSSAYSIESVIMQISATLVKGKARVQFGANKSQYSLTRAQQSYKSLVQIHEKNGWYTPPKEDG
Sequence | lacZ reporter activity
LEALSSDFLACKICLEQLRAPKTLPCLHTYCQDCLAQLADGGRVRCPECRETVPVPPEGV (TRIM56 RING domain (UniProt Q9BRZ2)) | 0
B1 (TRIM11 RING domain) | 0
B2 (RNF182 RING domain) | 0
B3 (HLTF RING domain) | 0
LVKDFNPYITCYICKGYLIKPTTVTECLHTFCKTCIVQHFEDSNDCPRCGNQVHETNPLE (PCGF5 RING domain (UniProt Q86SE9)) | 0
B4 (ARIH2 RING domain) | 0
EIKEYKARLTCPCCNTRKKDAVLTKCFHVFCFECVRGRYEARQRKCPKCNAAFGAHDFHR (RNF40 RING domain (UniProt O75150)) | 0

Repeated from above (block 1):
Strand | median fluorescence
GAGGCCACGCAAACAACGCCTCCTGGCGTTGTTTGCGTGGCCTCACACTC (5mC at 36) | 3660 a.u.
GAGGCCATGCAACCAACGCCTCCTGGCGTTGGTTGCATGGCCTCACACTC | 3330 a.u.
GAGGCCAAGTAAACAACGCCTCCTGGCGTTGTTTACTTGGCCTCACACTC | 4760 a.u.
GAGGCCATGGAACCAACGCCTCCTGGCGTTGGTTCCATGGCCTCACACTC | 3310 a.u.
GAGGCCATGCAAACACGGCCTCCTGGCCGTGTTTGCATGGCCTCACACTC (5mC at 28) | 3560 a.u.
